{"data": "Published values from different studies", "note": "Each line is one published result; not all experiments were run side by side. ± gives the spread as reported."}
{"Compound": "CC(=O)[CH](C(C)=O)[Pt-2]1([S+](C)C)[O]C(C)=CC(C)=[O+]1 (stereo not shown)", "assay": "refers to: platinum", "system": "rat", "setting": "iv, dose not given", "how to read": "reference: blood over plasma", "endpoint": "AUC ratio", "result": "~30%"}
{"Compound": "NCC(=O)NCC(=O)NCC(=O)NCC(=O)NCC(=O)NCC(=O)NCCCC[C@H](NC(=O)[C@@H]1CCCN1C(=O)[C@@H]1CSSCCC(=O)N[C@@H](Cc2ccc(O)cc2)C(=O)N[C@@H](Cc2ccccc2)C(=O)N[C@@H](CCCC(N)=O)C(=O)N[C@@H](CC(N)=O)C(=O)N1)C(=O)NCC(N)=O", "system": "Sprague Dawley rats, plasma", "setting": "subcutaneous, 0.1 mg/kg", "endpoint": "AUC", "result": "0.00134 µg·h/mL"}
{"Compound": "N[C@@H](COc1ccccc1C(F)(F)F)c1ccccc1", "system": "male Sprague-Dawley rat", "setting": "oral, 25 mg/kg", "endpoint": "AUC", "result": "1.56 ± 0.019 µg·h/mL"}
{"Compound": "O=C(O)/C=C/c1ccc(NC(=O)C2(NC(=O)c3ccc4c(C5CCCCC5)c5n(c4c3)CCCCNc3ccccc3-5)CCCC2)cc1", "system": "rat", "setting": "dose not given", "endpoint": "AUC", "result": "3600 nM·h"}
{"Compound": "Cc1ncc2c(n1)CN(C(=O)Nc1nc(-c3cccs3)ccc1N)C2", "system": "male Sprague-Dawley rats", "setting": "oral, 45 mg/kg daily, day 14", "endpoint": "AUC", "result": "13.2 ± 4.76 µg·h/mL"}
{"Compound": "CC(C)C[C@H](NC(=O)[C@H](CCCCN)NC(=O)CNC(=O)[C@H](CC(C)C)NC(=O)[C@@H](NC(=O)[C@@H]1CSSC[C@H](N)C(=O)N[C@@H](CO)C(=O)N[C@@H](CC(N)=O)C(=O)N[C@@H](CC(C)C)C(=O)N[C@@H](CO)C(=O)N[C@@H]([C@@H](C)O)C(=O)N1)C(C)C)C(=O)N[C@@H](CO)C(=O)N[C@@H](CCC(N)=O)C(=O)N[C@@H](CCC(=O)O)C(=O)N[C@@H](CC(C)C)C(=O)N[C@@H](Cc1c[nH]cn1)C(=O)N[C@@H](CCCCN)C(=O)N[C@@H](CC(C)C)C(=O)N[C@@H](CCC(N)=O)C(=O)N[C@H](C(=O)N[C@@H](Cc1ccc(O)cc1)C(=O)N1CCC[C@H]1C(=O)N[C@@H](CCCNC(=N)N)C(=O)N[C@H](C(=O)N[C@@H](CC(N)=O)C(=O)N[C@H](C(=O)NCC(=O)N[C@@H](CO)C(=O)NCC(=O)N[C@H](C(=O)N1CCC[C@H]1C(N)=O)[C@@H](C)O)[C@@H](C)O)[C@@H](C)O)[C@@H](C)O", "assay": "ELISA", "system": "hairless Sprague-Dawley rat, male, serum", "setting": "subcutaneous, 3 µg, coating dissolved from microneedles", "endpoint": "AUC", "result": "0.00672 ± 0.00422 µg·h/mL"}
{"Compound": "O=c1nc(NO)ccn1[C@@H]1O[C@H](CO)[C@@H](O)[C@H]1O", "system": "male Wistar rats, plasma", "setting": "oral, 30 mg/kg", "how to read": "reference: CFA-arthritic over normal rats", "endpoint": "AUC ratio", "result": "1.7 fold"}
{"Compound": "O=C(O)/C=C/c1ccc(NC(=O)C2(NC(=O)c3ccc4c(C5CCCCC5)c5n(c4c3)CC(=O)Nc3ccccc3-5)CCCC2)cc1", "system": "rat", "setting": "dose not given", "endpoint": "AUC", "result": "700 nM·h"}
{"Compound": "COc1cccc(-c2n[nH]c([S+]([O-])Cc3ccccn3)n2)c1OC (stereo not shown)", "system": "Sprague-Dawley rat, male and female, plasma", "setting": "oral, 100 mg/kg of parent drug", "endpoint": "AUC", "result": "498 µg·h/mL"}
{"Compound": "CC(=O)c1cnc(N)nc1N1CC[C@H]1c1nn2ccc(Cl)c2c(=O)n1-c1ccccc1", "system": "rat Wistar female collagen-induced arthritis, plasma", "setting": "oral, 0.1 mg/kg twice daily", "endpoint": "AUC", "result": "0.684 ± 0.078 µg·h/mL"}
